{"data": "Assay results collected from several papers", "note": "Numbered parts are unrelated; each lists some results of a single study."}
{"data": "Set 1", "target": "Sal-like protein 4, full length isoform A (SALL4, Homo sapiens, UniProt Q9UJQ4, residues 1-1053)", "method": "universal PBM", "molecule type": "double-stranded DNA, one strand shown", "medium": "in vitro", "tested at": "600 nM", "setting": "8-mer, flanks averaged, mean of replicates", "reading": "higher = stronger binding", "chain of UniProt Q9UJQ4 (whole entry, looked up)": "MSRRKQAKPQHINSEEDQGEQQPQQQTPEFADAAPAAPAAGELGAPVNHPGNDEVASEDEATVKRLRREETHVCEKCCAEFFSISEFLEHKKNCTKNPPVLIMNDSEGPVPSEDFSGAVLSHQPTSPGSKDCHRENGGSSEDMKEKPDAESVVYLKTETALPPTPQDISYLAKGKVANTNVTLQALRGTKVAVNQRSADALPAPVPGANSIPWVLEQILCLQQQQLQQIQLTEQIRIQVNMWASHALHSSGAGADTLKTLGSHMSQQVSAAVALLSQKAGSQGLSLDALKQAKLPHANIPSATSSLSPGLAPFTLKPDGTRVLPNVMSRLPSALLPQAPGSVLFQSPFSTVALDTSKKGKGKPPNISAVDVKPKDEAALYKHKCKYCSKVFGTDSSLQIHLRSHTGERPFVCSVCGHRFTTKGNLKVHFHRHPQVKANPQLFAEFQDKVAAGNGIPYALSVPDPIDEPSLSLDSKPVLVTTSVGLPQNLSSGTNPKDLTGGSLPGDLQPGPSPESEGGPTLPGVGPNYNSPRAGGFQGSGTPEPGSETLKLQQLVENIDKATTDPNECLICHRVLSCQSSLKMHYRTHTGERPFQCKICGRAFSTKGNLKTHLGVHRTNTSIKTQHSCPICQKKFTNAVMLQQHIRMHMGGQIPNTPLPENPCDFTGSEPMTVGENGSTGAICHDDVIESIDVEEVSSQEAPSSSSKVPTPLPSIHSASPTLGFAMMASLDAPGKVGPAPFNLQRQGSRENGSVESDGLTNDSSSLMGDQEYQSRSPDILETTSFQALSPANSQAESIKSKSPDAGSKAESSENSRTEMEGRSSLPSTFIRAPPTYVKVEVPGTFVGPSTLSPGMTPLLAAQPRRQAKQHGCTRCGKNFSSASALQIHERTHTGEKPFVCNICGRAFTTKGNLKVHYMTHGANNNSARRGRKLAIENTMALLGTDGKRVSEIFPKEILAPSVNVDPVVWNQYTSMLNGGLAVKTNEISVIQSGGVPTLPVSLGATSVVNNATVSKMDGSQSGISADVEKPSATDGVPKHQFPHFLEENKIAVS"}
{"Sequence": "ATTTTAAC", "E-score": 0.23}
{"Sequence": "CACCGTCA", "E-score": -0.071}
{"Sequence": "GACAAGTA", "E-score": 0.031}
{"Sequence": "CATTTCAG", "E-score": 0.118}
{"Sequence": "ATCAATGC", "E-score": 0.0114}
{"Sequence": "GATCGATC", "E-score": -0.214}
{"Sequence": "CGGATCAG", "E-score": -0.195}
{"Sequence": "ACCAAGCC", "E-score": -0.13}
{"Sequence": "AGCTGCGC", "E-score": -0.217}
{"data": "Set 2", "target": "Histone acetyltransferase KAT6A, both winged helices, GST fusion (KAT6A, Homo sapiens, UniProt Q92794, residues 1-181)", "method": "protein binding microarray", "molecule type": "double-stranded DNA, one strand shown", "medium": "in vitro", "tested at": "not given", "setting": "8-mer, flanks averaged, mean of 2 arrays, mostly near background", "relative to": "not given", "reading": "higher = stronger binding", "Target sequence (chain)": "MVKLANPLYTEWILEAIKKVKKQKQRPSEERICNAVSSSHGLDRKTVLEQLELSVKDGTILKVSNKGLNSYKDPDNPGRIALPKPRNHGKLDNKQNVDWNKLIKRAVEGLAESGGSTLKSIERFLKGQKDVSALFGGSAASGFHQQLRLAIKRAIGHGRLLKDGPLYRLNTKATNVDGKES"}
{"Sequence": "ATCCCGTG", "E-score": 0.211}
{"Sequence": "ATCTGTCG", "E-score": 0.0753}
{"Sequence": "GTTAACTA", "E-score": 0.188}
{"Sequence": "GAACTCGA", "E-score": -0.208}
{"Sequence": "CCTAGGTC", "E-score": -0.122}
{"Sequence": "CGGTAGCA", "E-score": 0.0256}
{"Sequence": "CAAATCCC", "E-score": -0.0426}
{"Sequence": "GTCGACCA", "E-score": 0.123}
{"Sequence": "CCTATCAG", "E-score": -0.175}
{"Sequence": "GAAGGGAC", "E-score": -0.0988}
{"Sequence": "GATCTCCC", "E-score": -0.0102}
{"Sequence": "CTCAAAAG", "E-score": 0.00543}
{"data": "Set 3", "target": "Interferon regulatory factor 5, full length, phosphomimetic (IRF5, Homo sapiens, UniProt Q13568-2, residues 1-514, S451D/S453D/S456D/S462D)", "method": "protein-binding microarray", "molecule type": "double-stranded DNA, one strand shown", "medium": "in vitro", "tested at": "940 nM top", "setting": "60-bp whole probe", "added": "salmon DNA 0.4 mg/ml", "relative to": "random background probes", "reading": "higher = stronger binding", "all sequences stand within": "GCCTAGCAC … GTCTTGATTCGCTTGACGCTGCTG"}
{"Sequence": "GACGAACTTGGGTATCGAGACGTGCTA", "fitted relative affinity": "1.1 z-score"}
{"Sequence": "TGTGTTTTAAATAGGGCAAAGTGCTAG", "fitted relative affinity": "-0.183 z-score"}
{"Sequence": "TTAGCTCTCCTTCTCCTTTAGTGCTAG", "fitted relative affinity": "0.406 z-score"}
{"Sequence": "TTAGGTTTCGACGATCGGTTAGTGCTA", "fitted relative affinity": "8.12 z-score"}
{"Sequence": "TTAGGTTTCGTCTATCGGTTAGTGCTA", "fitted relative affinity": "8.45 z-score"}
{"Sequence": "GGCAAAAACATGAACAGACAGTGCTAG", "fitted relative affinity": "-0.63 z-score"}
{"Sequence": "TTAGGTTTCGGGTTTCGGTTTGTGCTA", "fitted relative affinity": "11.3 z-score"}
{"Sequence": "TCAAGCCTAAGGTTTAGGACTGTGCTA", "fitted relative affinity": "-0.899 z-score"}
{"data": "Other studies, line by line"}
{"Substance": "PhoQ, residues 284 288 289 292 302 303 ALAMYF", "target": "PhoP, residues 12 14 15 18 19 VQALL (Escherichia coli, UniProt P23836)", "assay": "Sort-seq, item: YFP reporter", "test system": "E. coli", "conditions": "PhoQ-PhoP variant library, added: 10 µM Mg2+", "scale": "relative to: high Mg2+ state, higher = stronger signaling", "measurement": "fold induction", "result": 8.29}
{"note": "Excerpt of the above (set 3):"}
{"Sequence": "TCAAGCCTAAGGTTTAGGACTGTGCTA", "fitted relative affinity": "-0.899 z-score"}
{"Sequence": "GACGAACTTGGGTATCGAGACGTGCTA", "fitted relative affinity": "1.1 z-score"}
{"Sequence": "TTAGGTTTCGGGTTTCGGTTTGTGCTA", "fitted relative affinity": "11.3 z-score"}
{"Sequence": "TTAGGTTTCGACGATCGGTTAGTGCTA", "fitted relative affinity": "8.12 z-score"}
{"Sequence": "TGTGTTTTAAATAGGGCAAAGTGCTAG", "fitted relative affinity": "-0.183 z-score"}
